# Results from different studies.
# Every numbered part comes from another study and shows a few of its results, in no order. Values joined by “and” are separate records of one study, mostly repeats; a detail may differ.
# Chain of UniProt P36896 (whole entry, looked up): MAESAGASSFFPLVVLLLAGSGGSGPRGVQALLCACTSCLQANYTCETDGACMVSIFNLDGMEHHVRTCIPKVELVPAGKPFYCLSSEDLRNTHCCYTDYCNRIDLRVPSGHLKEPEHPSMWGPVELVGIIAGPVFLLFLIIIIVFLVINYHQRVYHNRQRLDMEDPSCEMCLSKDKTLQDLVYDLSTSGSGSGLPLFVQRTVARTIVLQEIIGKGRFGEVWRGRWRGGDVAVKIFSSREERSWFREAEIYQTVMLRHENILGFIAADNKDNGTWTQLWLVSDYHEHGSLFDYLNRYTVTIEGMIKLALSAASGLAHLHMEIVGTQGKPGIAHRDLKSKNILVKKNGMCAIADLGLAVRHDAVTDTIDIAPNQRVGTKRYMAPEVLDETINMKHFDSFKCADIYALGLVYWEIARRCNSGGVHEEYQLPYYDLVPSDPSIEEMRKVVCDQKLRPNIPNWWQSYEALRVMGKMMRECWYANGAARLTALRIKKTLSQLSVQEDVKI
# Chain of UniProt Q6PHR2 (whole entry, looked up): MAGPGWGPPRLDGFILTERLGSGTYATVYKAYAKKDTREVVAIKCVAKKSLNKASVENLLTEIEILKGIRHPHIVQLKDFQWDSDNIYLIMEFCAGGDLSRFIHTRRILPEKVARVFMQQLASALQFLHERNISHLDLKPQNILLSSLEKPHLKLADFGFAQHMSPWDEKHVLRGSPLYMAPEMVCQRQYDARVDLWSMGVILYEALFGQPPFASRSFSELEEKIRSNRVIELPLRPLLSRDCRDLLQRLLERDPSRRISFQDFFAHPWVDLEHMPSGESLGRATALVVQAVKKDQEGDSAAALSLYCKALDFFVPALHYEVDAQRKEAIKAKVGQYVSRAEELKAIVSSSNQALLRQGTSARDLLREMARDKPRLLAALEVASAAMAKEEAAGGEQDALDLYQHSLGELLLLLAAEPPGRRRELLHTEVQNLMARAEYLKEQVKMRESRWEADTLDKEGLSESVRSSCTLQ
# Chain of UniProt Q09013 (whole entry, looked up): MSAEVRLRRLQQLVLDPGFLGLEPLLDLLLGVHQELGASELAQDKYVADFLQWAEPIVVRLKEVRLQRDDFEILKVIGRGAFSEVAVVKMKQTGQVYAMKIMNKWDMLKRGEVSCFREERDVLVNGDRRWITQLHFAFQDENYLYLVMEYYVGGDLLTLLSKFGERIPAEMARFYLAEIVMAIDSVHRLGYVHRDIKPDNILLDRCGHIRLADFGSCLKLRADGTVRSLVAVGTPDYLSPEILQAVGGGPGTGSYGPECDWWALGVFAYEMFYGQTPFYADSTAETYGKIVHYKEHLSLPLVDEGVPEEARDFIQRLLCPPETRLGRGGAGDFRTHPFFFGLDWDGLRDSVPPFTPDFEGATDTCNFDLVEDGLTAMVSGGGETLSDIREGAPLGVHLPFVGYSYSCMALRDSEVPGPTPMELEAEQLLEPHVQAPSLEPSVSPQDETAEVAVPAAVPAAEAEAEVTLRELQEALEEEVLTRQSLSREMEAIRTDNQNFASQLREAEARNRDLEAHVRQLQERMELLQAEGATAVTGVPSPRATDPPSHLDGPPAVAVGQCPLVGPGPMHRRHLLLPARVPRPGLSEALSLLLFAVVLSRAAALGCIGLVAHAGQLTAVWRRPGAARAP
# Chain of UniProt Q9HC98 (whole entry, looked up): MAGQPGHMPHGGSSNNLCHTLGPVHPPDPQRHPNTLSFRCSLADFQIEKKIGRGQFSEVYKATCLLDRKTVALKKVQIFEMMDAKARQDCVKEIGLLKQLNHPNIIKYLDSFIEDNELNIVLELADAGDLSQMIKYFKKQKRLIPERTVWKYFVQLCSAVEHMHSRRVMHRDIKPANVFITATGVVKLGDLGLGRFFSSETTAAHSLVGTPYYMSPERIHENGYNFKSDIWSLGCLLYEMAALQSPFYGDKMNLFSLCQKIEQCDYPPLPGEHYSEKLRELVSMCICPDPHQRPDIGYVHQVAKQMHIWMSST
# Chain of UniProt Q15831 (whole entry, looked up): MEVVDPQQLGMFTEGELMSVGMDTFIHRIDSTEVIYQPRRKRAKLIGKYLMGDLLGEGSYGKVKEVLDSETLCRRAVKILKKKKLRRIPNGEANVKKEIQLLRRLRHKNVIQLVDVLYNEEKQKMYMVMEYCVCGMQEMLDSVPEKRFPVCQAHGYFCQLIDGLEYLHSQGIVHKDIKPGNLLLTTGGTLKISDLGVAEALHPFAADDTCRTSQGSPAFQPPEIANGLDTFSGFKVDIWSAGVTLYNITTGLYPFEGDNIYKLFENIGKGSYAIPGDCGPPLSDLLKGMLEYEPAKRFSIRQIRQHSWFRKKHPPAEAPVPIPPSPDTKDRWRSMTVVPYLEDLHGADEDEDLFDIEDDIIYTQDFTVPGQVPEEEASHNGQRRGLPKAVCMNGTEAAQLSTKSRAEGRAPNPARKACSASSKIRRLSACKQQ
# Chain of UniProt Q02750 (whole entry, looked up): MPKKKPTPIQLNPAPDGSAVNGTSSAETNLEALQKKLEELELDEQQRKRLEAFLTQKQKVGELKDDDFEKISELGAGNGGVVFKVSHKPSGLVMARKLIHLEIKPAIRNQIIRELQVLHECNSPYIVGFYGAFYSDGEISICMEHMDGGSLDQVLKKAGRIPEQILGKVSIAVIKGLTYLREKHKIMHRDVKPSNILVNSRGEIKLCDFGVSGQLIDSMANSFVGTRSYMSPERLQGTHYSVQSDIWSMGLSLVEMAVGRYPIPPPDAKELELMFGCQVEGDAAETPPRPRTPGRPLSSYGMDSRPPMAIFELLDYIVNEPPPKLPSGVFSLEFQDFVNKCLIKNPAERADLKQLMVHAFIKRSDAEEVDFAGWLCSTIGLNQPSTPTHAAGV
# Chain of UniProt P22607 (whole entry, looked up): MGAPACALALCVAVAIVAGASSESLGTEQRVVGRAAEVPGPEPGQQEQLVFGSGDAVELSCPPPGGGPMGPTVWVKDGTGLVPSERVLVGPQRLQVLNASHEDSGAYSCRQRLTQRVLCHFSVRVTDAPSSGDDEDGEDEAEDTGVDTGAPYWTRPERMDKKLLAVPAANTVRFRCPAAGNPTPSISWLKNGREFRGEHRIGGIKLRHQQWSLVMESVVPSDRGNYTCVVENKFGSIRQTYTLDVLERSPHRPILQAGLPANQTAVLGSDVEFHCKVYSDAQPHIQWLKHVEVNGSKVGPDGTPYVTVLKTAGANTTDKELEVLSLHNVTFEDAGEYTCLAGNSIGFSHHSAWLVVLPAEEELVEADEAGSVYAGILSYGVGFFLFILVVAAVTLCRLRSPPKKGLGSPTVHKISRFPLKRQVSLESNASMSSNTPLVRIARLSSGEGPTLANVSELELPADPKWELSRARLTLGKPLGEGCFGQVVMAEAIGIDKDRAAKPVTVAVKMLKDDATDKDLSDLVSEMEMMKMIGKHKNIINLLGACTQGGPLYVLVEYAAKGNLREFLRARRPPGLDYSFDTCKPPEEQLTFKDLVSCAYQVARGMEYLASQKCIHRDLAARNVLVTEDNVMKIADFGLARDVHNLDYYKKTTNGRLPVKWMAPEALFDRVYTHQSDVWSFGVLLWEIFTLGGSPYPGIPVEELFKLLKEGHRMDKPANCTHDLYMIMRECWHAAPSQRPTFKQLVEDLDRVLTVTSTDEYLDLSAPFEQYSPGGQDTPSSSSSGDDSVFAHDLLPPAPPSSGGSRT
# Chain of UniProt Q9UL54 (whole entry, looked up): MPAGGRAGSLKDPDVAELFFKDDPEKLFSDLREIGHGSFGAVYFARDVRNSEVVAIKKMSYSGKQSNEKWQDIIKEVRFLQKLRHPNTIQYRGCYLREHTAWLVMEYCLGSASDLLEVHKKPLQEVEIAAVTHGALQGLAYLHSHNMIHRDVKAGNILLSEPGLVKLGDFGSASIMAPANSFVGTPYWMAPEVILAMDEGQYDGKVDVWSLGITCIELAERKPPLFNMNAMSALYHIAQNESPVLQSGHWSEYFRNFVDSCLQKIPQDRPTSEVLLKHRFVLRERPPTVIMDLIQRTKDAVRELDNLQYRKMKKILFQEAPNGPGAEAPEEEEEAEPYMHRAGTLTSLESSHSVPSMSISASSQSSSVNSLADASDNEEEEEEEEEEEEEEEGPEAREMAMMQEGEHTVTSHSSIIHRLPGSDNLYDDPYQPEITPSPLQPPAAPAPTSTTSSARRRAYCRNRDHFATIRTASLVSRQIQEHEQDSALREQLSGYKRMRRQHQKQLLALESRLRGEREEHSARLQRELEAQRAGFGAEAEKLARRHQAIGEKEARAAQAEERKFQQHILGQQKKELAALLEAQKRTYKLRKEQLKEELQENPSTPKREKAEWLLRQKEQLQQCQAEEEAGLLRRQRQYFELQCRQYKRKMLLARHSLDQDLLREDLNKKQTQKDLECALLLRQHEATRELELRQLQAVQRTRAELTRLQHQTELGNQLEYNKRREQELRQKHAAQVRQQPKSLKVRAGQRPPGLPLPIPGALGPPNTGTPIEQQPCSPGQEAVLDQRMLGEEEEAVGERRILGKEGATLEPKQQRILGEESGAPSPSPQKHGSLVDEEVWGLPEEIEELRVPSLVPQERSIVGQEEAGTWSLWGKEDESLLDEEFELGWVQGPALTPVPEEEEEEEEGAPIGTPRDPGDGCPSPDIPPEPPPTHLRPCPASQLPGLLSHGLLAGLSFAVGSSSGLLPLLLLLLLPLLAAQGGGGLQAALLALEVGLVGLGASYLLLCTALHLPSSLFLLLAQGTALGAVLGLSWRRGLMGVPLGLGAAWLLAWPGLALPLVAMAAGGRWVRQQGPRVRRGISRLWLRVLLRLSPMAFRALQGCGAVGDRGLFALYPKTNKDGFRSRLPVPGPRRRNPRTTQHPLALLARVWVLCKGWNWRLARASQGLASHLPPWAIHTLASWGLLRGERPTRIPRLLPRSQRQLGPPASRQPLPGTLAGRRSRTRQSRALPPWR

# Set 1 — cell line: mouse MPNST tumor cells; technique: high-content nuclear imaging; measured: cell number; tested at: 10 µM; time: 12 h; setting: mean of 2 replicates; baseline: plate mean; direction: higher = more cells
SMILES,nuclei count
CNCCCC12CCC(c3ccccc31)c1ccccc12,-4.59 z-score and -3.84 z-score
CSc1nc(N)cc(Oc2ccc(-c3nc(Nc4cccc(C(F)(F)F)c4)n[nH]3)cc2)n1,-3.92 z-score
CCS(=O)(=O)CCn1c([N+](=O)[O-])cnc1C,1.93 z-score and 0.798 z-score
CC(C)(C)OC(=O)CN(Cc1ccc(Cl)cc1)Cc1ccc([N+](=O)[O-])s1,0.746 z-score
C[C@]12CC[C@@H]3c4ccc(O)cc4CC[C@H]3[C@@H]1C[C@@H](O)[C@@H]2O,-0.155 z-score
O=C(NCCCCN1CCOCC1)c1cc2ccccc2o1,-0.0551 z-score
CCN1CCCC1CNC(=O)c1cc(S(N)(=O)=O)ccc1OC (racemic),0.971 z-score

# Set 2 — effect on: enzyme activity; action: inhibitor; tested at: 0.5 µM; baseline: control
# SMILES: CCN(CC)CCNC(=O)c1c(C)[nH]c(/C=C2\C(=O)Nc3ccc(Cl)cc32)c1C
target,remaining activity [%]
"JAK3 (Homo sapiens, UniProt P52333)",39.3
"NEK1 (Homo sapiens, UniProt Q96PY6)",94.7
"FGFR1 (Homo sapiens, UniProt P11362)",20.3
"ACVR1B (Homo sapiens, UniProt P36896)",103
"MAPKAPK2 (Homo sapiens, UniProt P49137)",103
"MST1R (Homo sapiens, UniProt Q04912)",96.7
"MAP3K5 (Homo sapiens, UniProt Q99683)",98.1
"GRK7 (Homo sapiens, UniProt Q8WTQ7)",62.2
"MAP3K14 (Homo sapiens, UniProt Q99558)",118
"TAOK2 (Homo sapiens, UniProt Q9UL54)",72.6
"ULK3 (Homo sapiens, UniProt Q6PHR2)",21.6
"CSNK1G3 (Homo sapiens, UniProt Q9Y6M4)",47.7
"TBK1 (Homo sapiens, UniProt Q9UHD2)",16.3
"NEK6 (Homo sapiens, UniProt Q9HC98)",97.8
"FGFR3 (Homo sapiens, UniProt P22607)",12.3
"MERTK (Homo sapiens, UniProt Q12866)",11.5
"EPHA3 (Homo sapiens, UniProt P29320)",92.5
"ULK2 (Homo sapiens, UniProt Q8IYT8)",43
"RPS6KA2 (Homo sapiens, UniProt Q15349)",10
"TEK (Homo sapiens, UniProt Q02763)",98.2
"MAPK3 (Homo sapiens, UniProt P27361)",98.8
"WEE1 (Homo sapiens, UniProt P30291)",94.8
"MAP2K2 (Homo sapiens, UniProt P36507)",41.4
"ABL2 (Homo sapiens, UniProt P42684)",46.8
"CSNK1G2 (Homo sapiens, UniProt P78368)",45.2

# Set 3 — effect on: cell-free assay; technique: competition with immobilised ligand; tested at: 1 µM
# Structure (SMILES): CCOCCn1cc(C(=O)Nc2ccc(-n3nc(-c4cccnc4)cc3C(F)(F)F)cn2)ccc1=O
target,remaining binding
"BMPR1B (Homo sapiens, UniProt O00238)",71%
"MELK (Homo sapiens, UniProt Q14680)",93%
"SBK1 (Homo sapiens, UniProt Q52WX2)",91%
"MAP2K1 (Homo sapiens, UniProt Q02750)",86%
"MET (Homo sapiens, UniProt P08581, M1250T)",96%
"STK11 (Homo sapiens, UniProt Q15831)",89%
"CDC42BPB (Homo sapiens, UniProt Q9Y5S2)",89%
"MKNK2 (Homo sapiens, UniProt Q9HBH9)",100%
"MAP3K3 (Homo sapiens, UniProt Q99759)",100%
"Ribosomal protein S6 kinase alpha-4, N-terminal kinase domain (RPS6KA4, Homo sapiens, UniProt O75676)",100%
"CHUK (Homo sapiens, UniProt O15111)",100%
"DMPK (Homo sapiens, UniProt Q09013)",100%
"MET (Homo sapiens, UniProt P08581, Y1235D)",100%
"MAP3K1 (Homo sapiens, UniProt Q13233)",84%

# Set 4 — host: human; sample: microsomes or S9; tested at: 2 µM; time: 0.5 h
Compound,remaining compound
CC(C)CNCC(=O)Nc1ccc(C(=O)N2c3ccc(S(=O)(=O)N4CC(c5ccccc5)NC4=O)cc3CC2C)cc1 (centres unmarked),3.24%
CCOC(=O)c1[nH]c(C)c(C(=O)CN(CC(C)C)S(=O)(=O)c2ccc(F)cc2)c1C,0%
COc1cc(NC(=O)c2c(OC)cc(=O)n3c2CCCC3)cc(OC)c1OC,87.8%
Cc1nc(C(C)N(C)CCCS(=O)(=O)N(C)C)c(C)s1 (centres unmarked),22.4%
CNc1nc(NC2CCOC2c2ccc(F)c(F)c2)ncc1Br (centres unmarked),26%
NC(=O)c1c(-c2ccc(Cl)cc2Cl)csc1NC(=O)CC1(CC(=O)O)CCCC1,57.3%
COc1ccc(S(=O)(=O)[C@H]2CS(=O)(=O)C[C@@H]2NCc2ccc3c(c2)OCO3)cc1C,0.889%

# Some of these lines once more (set 1):
SMILES,nuclei count
CSc1nc(N)cc(Oc2ccc(-c3nc(Nc4cccc(C(F)(F)F)c4)n[nH]3)cc2)n1,-3.92 z-score
CCN1CCCC1CNC(=O)c1cc(S(N)(=O)=O)ccc1OC (racemic),0.971 z-score
CNCCCC12CCC(c3ccccc31)c1ccccc12,-4.59 z-score and -3.84 z-score
CCS(=O)(=O)CCn1c([N+](=O)[O-])cnc1C,1.93 z-score and 0.798 z-score
CC(C)(C)OC(=O)CN(Cc1ccc(Cl)cc1)Cc1ccc([N+](=O)[O-])s1,0.746 z-score
O=C(NCCCCN1CCOCC1)c1cc2ccccc2o1,-0.0551 z-score
C[C@]12CC[C@@H]3c4ccc(O)cc4CC[C@H]3[C@@H]1C[C@@H](O)[C@@H]2O,-0.155 z-score
